Experimental data collected from several papers.
Each line is one published result; not all experiments were run side by side. ± gives the spread as reported.
UniProt P21554, sequence (whole entry, unmodified, looked up): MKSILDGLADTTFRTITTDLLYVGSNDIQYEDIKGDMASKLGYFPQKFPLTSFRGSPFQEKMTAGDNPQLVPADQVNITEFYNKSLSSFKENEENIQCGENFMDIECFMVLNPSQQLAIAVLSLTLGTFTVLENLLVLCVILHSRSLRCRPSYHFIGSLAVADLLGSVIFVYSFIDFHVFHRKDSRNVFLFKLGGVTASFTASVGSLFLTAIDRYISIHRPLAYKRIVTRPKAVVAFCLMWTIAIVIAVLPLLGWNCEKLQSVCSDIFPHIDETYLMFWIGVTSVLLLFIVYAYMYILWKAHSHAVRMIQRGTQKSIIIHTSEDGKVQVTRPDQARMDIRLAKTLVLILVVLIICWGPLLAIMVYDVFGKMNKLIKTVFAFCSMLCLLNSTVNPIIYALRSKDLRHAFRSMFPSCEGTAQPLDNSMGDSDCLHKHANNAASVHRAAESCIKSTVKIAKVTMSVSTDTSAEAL
UniProt P18507, sequence (whole entry, unmodified, looked up): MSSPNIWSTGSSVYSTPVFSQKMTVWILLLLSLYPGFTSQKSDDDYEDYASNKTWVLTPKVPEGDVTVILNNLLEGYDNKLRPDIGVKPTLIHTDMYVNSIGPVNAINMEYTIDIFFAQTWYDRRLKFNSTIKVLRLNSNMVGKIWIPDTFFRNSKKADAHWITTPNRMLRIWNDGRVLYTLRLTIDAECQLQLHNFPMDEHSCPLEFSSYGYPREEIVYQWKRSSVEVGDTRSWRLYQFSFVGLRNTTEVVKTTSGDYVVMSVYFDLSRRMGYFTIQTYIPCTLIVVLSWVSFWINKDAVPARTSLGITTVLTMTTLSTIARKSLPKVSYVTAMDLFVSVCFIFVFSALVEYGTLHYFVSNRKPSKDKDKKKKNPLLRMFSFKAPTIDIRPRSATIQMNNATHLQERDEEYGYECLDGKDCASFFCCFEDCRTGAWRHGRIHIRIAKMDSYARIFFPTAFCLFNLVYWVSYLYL
UniProt I6Y8I5, sequence (whole entry, looked up): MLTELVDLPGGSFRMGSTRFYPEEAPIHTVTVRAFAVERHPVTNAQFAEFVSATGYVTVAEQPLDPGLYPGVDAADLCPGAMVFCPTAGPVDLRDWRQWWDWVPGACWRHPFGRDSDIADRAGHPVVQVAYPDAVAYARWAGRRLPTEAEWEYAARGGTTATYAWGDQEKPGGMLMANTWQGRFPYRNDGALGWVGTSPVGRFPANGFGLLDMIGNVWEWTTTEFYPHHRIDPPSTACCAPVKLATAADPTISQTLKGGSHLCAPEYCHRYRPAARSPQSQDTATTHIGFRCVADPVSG
UniProt Q9NSI6, sequence (whole entry, looked up): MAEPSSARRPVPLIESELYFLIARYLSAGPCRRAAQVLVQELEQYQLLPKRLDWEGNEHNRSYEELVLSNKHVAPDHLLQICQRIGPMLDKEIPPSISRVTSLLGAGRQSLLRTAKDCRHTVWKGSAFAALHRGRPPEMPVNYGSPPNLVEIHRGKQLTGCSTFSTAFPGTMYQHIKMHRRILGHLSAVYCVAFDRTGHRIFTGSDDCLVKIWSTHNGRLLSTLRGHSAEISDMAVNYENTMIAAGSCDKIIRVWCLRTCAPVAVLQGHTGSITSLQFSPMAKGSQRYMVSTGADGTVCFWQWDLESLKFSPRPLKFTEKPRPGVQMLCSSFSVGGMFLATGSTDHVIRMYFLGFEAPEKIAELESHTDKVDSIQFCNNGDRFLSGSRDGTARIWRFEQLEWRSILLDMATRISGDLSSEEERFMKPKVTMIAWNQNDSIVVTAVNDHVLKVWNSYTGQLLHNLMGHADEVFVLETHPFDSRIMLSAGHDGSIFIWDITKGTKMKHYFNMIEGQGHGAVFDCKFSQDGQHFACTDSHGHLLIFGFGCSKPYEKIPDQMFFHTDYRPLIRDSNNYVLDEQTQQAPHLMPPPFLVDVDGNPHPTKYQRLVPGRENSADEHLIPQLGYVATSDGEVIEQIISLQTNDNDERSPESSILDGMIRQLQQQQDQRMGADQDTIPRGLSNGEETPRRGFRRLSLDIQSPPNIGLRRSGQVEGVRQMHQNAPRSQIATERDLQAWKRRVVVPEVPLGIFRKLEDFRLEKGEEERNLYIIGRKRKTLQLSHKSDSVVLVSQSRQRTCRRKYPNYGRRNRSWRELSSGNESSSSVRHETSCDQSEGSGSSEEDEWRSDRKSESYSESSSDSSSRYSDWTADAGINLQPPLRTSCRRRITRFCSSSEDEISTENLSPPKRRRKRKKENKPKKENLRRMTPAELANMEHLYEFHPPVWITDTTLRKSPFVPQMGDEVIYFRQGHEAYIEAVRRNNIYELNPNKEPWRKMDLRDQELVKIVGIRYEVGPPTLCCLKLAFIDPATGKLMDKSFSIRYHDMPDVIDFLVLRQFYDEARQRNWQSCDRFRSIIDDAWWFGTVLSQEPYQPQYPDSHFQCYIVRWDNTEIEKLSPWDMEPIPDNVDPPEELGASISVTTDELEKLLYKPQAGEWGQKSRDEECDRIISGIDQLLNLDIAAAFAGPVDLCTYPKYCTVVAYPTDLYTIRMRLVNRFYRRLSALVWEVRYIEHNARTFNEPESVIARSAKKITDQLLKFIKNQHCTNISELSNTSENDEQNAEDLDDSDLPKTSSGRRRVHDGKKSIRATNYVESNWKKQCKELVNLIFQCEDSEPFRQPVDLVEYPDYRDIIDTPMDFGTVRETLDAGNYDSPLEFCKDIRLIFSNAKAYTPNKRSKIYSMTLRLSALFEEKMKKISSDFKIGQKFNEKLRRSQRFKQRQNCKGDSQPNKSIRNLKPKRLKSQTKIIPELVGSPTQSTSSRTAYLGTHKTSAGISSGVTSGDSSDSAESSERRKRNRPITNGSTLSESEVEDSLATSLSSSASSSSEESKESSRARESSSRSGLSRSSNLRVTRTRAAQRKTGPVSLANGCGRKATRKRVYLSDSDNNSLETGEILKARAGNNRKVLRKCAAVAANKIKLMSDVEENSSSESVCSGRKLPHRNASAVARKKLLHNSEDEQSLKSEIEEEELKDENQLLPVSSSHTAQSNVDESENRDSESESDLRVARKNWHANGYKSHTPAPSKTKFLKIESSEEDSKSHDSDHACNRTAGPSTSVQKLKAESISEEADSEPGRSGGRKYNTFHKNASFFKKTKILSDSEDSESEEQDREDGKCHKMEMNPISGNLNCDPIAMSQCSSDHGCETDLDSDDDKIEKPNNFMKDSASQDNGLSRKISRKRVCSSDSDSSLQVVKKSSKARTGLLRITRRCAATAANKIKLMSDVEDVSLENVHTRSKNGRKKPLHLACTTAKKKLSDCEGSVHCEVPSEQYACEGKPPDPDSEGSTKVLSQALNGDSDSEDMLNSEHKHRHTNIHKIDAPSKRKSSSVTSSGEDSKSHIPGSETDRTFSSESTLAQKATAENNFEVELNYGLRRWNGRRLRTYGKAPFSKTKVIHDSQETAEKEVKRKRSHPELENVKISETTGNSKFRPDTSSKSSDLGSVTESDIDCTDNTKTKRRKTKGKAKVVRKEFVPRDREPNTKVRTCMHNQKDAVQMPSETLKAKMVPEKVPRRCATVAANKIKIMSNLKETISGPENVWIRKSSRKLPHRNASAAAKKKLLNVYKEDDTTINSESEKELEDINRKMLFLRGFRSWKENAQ
UniProt P34972, sequence (whole entry, unmodified, looked up): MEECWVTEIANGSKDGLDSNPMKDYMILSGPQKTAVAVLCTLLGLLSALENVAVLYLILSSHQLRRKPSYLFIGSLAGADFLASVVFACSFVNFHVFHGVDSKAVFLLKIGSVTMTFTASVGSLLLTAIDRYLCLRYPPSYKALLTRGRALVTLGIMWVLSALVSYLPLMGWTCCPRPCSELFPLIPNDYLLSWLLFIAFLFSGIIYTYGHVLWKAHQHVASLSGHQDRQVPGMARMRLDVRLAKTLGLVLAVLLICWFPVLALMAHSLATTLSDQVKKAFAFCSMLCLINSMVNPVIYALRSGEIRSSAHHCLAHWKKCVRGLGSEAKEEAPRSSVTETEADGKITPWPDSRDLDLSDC
UniProt P29350, sequence (whole entry, looked up): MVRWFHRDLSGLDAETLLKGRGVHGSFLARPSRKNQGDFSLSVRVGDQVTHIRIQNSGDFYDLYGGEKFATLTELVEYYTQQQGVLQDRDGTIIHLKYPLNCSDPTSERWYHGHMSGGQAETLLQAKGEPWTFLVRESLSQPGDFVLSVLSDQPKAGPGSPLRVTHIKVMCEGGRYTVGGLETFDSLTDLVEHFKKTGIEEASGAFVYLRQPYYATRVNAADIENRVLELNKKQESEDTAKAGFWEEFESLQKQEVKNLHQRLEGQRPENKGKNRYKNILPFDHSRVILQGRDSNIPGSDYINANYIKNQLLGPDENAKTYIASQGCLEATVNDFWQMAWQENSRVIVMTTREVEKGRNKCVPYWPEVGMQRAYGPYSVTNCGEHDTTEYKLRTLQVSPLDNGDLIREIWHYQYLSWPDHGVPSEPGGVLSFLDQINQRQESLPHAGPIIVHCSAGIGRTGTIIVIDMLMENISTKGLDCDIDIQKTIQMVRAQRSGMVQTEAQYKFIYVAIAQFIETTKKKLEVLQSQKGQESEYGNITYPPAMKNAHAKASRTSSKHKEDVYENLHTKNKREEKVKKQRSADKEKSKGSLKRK
UniProt P14867, sequence (whole entry, unmodified, looked up): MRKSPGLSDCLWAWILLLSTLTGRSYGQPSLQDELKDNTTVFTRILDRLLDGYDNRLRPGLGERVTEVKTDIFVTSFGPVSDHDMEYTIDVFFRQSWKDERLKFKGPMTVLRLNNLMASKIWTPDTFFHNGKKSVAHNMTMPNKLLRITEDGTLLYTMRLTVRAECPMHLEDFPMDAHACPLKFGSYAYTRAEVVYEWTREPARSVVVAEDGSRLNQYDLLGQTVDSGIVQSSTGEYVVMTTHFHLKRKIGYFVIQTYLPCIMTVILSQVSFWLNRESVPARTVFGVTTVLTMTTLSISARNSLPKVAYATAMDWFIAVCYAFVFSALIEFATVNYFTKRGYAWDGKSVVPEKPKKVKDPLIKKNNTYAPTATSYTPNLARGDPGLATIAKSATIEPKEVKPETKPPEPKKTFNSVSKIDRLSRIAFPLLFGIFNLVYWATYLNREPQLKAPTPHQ

| Compound | target | assay | test system | conditions | how to read | endpoint | result |
| --- | --- | --- | --- | --- | --- | --- | --- |
| CCCCCc1cc(O)c2c(c1)OC(C)(C)C1CCC(C)=CC21 (single isomer, unassigned; (-)) | UDP-glucuronosyltransferase 2B4 (UGT2B4, Homo sapiens, UniProt P06133) | codeine glucuronidation | HEK293 microsomes | 100 µM, with: codeine | baseline: untreated | inhibition | 79% |
| CSCC[C@H](NC(=O)[C@H](CCSC)NC(=O)CNC(=O)[C@H](CS)NC(=O)[C@@H](N)CO)C(=O)O | Formylglycine-generating enzyme (Mycobacterium tuberculosis, UniProt I6Y8I5) | enzyme activity, inhibitor, LC-MS | – | 100 µM, 10 min, with: pentapeptide substrate | – | inhibition | > 50% |
| Cc1ccccc1N1C(=O)/C(=C/c2ccc(OCc3cccc(C(=O)O)c3)cc2)C(=O)NC1=S | Tyrosine-protein phosphatase non-receptor type 6 (PTPN6, Homo sapiens, UniProt P29350) | phosphatase activity, inhibitor | – | – | baseline: LYP IC50 over PTPN6 IC50 inverse | selectivity ratio | 46 fold |
| N=C(N)Nc1ccc2[nH]c3c(c2c1)C[C@@]1(O)[C@H]2Cc4ccc(O)c5c4[C@@]1(CCN2CC1CC1)[C@H]3O5 | Carbamate kinase (Giardia intestinalis, UniProt A8BB85) | enzyme activity, inhibitor, luminescence, ATP detection | Giardia lamblia | – | – | maximal inhibition | 86% |
| CCCCCn1cc(C(=O)c2ccc3ccccc3c2)c2ccccc21 | Cannabinoid receptor 1 (CNR1, Homo sapiens, UniProt P21554, I267L/L193I/L359V) | Gαi1 engagement, agonist, BRET | – | CB1 triple mutant | baseline: wild type receptor | Emax increase | ~40% |
| Cc1sc2c(c1C)C(c1ccc(Cl)cc1)=N[C@@H](CC(=O)OC(C)(C)C)c1nnc(C)n1-2 | Bromodomain and WD repeat-containing protein 1, bromodomain 2 (BRWD1, Homo sapiens, UniProt Q9NSI6) | ITC | – | 25 µM, 15 °C, protein 300 µM | – | binding | no binding |
| CCOC(=O)C1C(OC(c2ccc(Cl)cc2)c2ccc(Cl)cc2)CC2CCC1N2C (single isomer, unassigned) | rat GABAA receptor agonist site | binding, radioligand displacement | – | inactive if below 75% at 10000 nM, with: [3H]muscimol | – | Ki | inactive |
| CCCCCn1cc(C(=O)c2cccc3ccccc23)c2ccccc21 | Cannabinoid receptor 2 (CNR2, Homo sapiens, UniProt P34972, V261L) | Gαi1 engagement, agonist, BRET | – | – | baseline: reference agonist at wild-type CB2 | Emax | 29.9 ± 4.1% |
| C=C(C)C1C2OC(=O)C1C1(O)CC3OC34C(=O)OC2C14C (centres unmarked) | GABA-A receptor; alpha-1/beta-2/gamma-2 (Homo sapiens, UniProt P14867+P18507+P47870, V284A) | inhibitor, two-electrode voltage clamp | Xenopus oocytes | with: GABA at EC50 | – | Hill coefficient | 0.95 ± 0.09 |
| CCCCCn1cc(C(=O)c2ccc3c(c2)CC(C)(C)C3)c2ccccc21 | Cannabinoid receptor 1 (CNR1, Homo sapiens, UniProt P21554, L359V) | Gαi1 engagement, agonist, BRET | – | – | baseline: reference agonist at wild-type CB1 | Emax | 40.3 ± 4.7% |
| C[N+](C)(C)CCOC(N)=O | Neuronal acetylcholine receptor subunit alpha-7 (CHRNA7, Homo sapiens, UniProt P36544) | binding | – | 24 or 48 h, 37 °C | – | Hill coefficient | 1.47 ± 0.07 |

For quick reference, copied from above:
| Compound | target | assay | test system | conditions | how to read | endpoint | result |
| --- | --- | --- | --- | --- | --- | --- | --- |
| CCCCCc1cc(O)c2c(c1)OC(C)(C)C1CCC(C)=CC21 (single isomer, unassigned; (-)) | UDP-glucuronosyltransferase 2B4 (UGT2B4, Homo sapiens, UniProt P06133) | codeine glucuronidation | HEK293 microsomes | 100 µM, with: codeine | baseline: untreated | inhibition | 79% |
